{"data": "Assay results from different studies", "TEK": "Angiopoietin-1 receptor (TEK, Homo sapiens, UniProt Q02763)"}
{"Compound": "COc1c(OCCCN2CCOCC2)ccc2c1N=C(NC(=O)c1cnc(N)nc1)N1CCN=C21", "target": "TEK", "assay": "kinase activity, inhibitor", "conditions": "1 µM", "how to read": "baseline: untreated control", "endpoint": "remaining activity", "result": "102%"}
{"Compound": "Cc1ccc(C(=O)Nc2ccc(CN3CCN(C)CC3)c(C(F)(F)F)c2)cc1C#Cc1cnc2cccnn12", "target": "TEK", "assay": "NanoBRET target engagement", "system": "human cells", "endpoint": "Hill slope", "result": 0.779}
{"Compound": "C=CC(=O)Nc1cccc(-c2cnc3[nH]cc(C(=O)NC(C)(C)C)c3n2)c1", "target": "TEK", "assay": "enzyme activity, inhibitor", "conditions": "0.1 µM", "endpoint": "inhibition", "result": "0%"}
{"Compound": "CCn1cc(C(=O)O)c(=O)c2c(N)c(F)c(NC3CCCCC3)cc21", "target": "TEK", "assay": "kinase activity", "conditions": "0.1 µM, added: ATP at Km", "endpoint": "inhibition", "result": "3.8%"}
{"Compound": "COc1ccc(NC(=O)Nc2ccc3c(c2)C(=O)N(C(C)CO)CC(C)C(CN(C)Cc2ccc4c(c2)OCO4)O3)cc1 (stereo not shown)", "target": "TEK", "assay": "binding, competition with immobilised ligand", "conditions": "10 µM", "endpoint": "remaining binding", "result": "97%"}
{"Compound": "C[C@H]1CN(C(=O)c2cn(-c3ccnc(N)n3)c3cc(C#CC4(O)CCCCC4)ccc23)CCN1", "target": "TEK", "assay": "enzyme activity, inhibitor, FRET", "conditions": "1 µM", "endpoint": "inhibition", "result": "3%"}
{"Compound": "Cc1ccc(-c2c(/C=C(\\C#N)C(=O)NC(C)C)n(CCCO)c3ncnc(N)c23)cc1", "target": "TEK", "assay": "cell-free assay, competition with immobilised ligand", "conditions": "1 µM", "endpoint": "remaining binding", "result": "62%"}
{"Compound": "CNC(=O)C1CCN(c2cc(C)c(F)cc2NC(=O)c2ccc(-c3cc(O)ccc3C)c(C)c2)CC1", "target": "TEK", "assay": "binding, competition with immobilised ligand", "conditions": "1 µM", "endpoint": "remaining binding", "result": "100%"}
{"Compound": "O=C=[N][Ru-4]123([n]4c5ccc(O)cc5c5c6c(c7cc(F)c[n+]1c7c54)C(=O)NC6=O)[S+]1CC[S+]2CC[S+]3CC1 (stereo not shown)", "target": "TEK (Homo sapiens, UniProt Q02763, Y897S)", "assay": "enzyme activity", "conditions": "100 nM, human enzyme, added: 10 µM ATP", "how to read": "baseline: untreated", "endpoint": "remaining activity", "result": "108%"}
{"Compound": "NC(=O)[C@@H](O)C[C@H]1CCc2sc3ncnc(O[C@H]4CC[C@H](N5CCOCC5)CC4)c3c21", "target": "TEK", "assay": "enzyme activity, inhibitor", "conditions": "10 µM", "endpoint": "inhibition", "result": "3%"}
{"Compound": "C=CC(=O)N1Cc2nc(-c3cc(-c4cc(Cl)cnc4Cl)c(F)cc3F)n(-c3ccncn3)c2C1", "target": "TEK", "assay": "cell-free assay", "conditions": "1 µM", "endpoint": "inhibition", "result": "8%"}
{"Compound": "CC(=O)N1c2ccc(-c3ccc(CNC(=O)c4cn5cc(-c6cnc(N)nc6)nc(N6CCOCC6)c5n4)cc3)cc2CC[C@@H]1C", "target": "TEK", "assay": "KINOMEscan", "conditions": "10 µM", "endpoint": "remaining binding", "result": "94%"}
{"Compound": "C=C1CCCCCCCCCC(CO)C1=O (stereo not shown)", "target": "TEK", "assay": "cell-free assay", "conditions": "10 µM", "endpoint": "remaining signal", "result": "90%"}
{"Compound": "C=CC(=O)N1CCCC(n2c(=O)c3ncccc3n(Cc3ccc(Oc4ccccc4)cc3)c2=O)C1 (stereo not shown)", "target": "TEK", "assay": "cell-free assay, competition with immobilised ligand", "conditions": "1 µM", "endpoint": "remaining binding", "result": "89%"}
{"Compound": "O=c1c(-c2ccc(Cl)c(CN3CCOCC3)c2)coc2cc(O)ccc12", "target": "TEK", "assay": "enzyme activity, inhibitor", "conditions": "1 µM", "endpoint": "remaining activity", "result": "88%"}
{"Compound": "CCN1CCN(Cc2ccc(C(=O)Nc3ccc(C)c(NCc4cnc5[nH]ccc5c4OC)c3)cc2C(F)(F)F)CC1", "target": "TEK", "assay": "binding, competition with immobilised ligand", "conditions": "1 µM", "endpoint": "remaining binding", "result": "0.35%"}
{"Compound": "COc1cc(Nc2nccc(-c3cnn4nc(OC)ccc34)n2)cc(C(F)(F)F)c1", "target": "TEK", "assay": "binding, competition with immobilised ligand", "conditions": "1 µM", "endpoint": "remaining binding", "result": "100%"}
{"Compound": "Cc1cccc(O[C@H]2CCC[C@@H](C(C)CNCc3ccncc3)C2)c1 (relative stereo)", "target": "TEK", "assay": "cell-free assay", "conditions": "10 µM", "endpoint": "inhibition", "result": "-1%"}
{"Compound": "COc1ccc(O)cc1-c1c[nH]c2ncc(-c3cncc(C(=O)N(C)C)c3)cc12", "target": "TEK", "assay": "binding, competition with immobilised ligand", "conditions": "0.2 µM", "endpoint": "inhibition", "result": "8.72%"}
{"Compound": "CCN1CCN(Cc2ccc(NC(=O)c3ccc(C)c(NC(=O)c4cncc(-c5cccs5)c4)c3)cc2C(F)(F)F)CC1", "target": "TEK", "assay": "binding, competition with immobilised ligand", "conditions": "1 µM", "endpoint": "remaining binding", "result": "11%"}
{"Compound": "CNS(=O)(=O)Nc1nccc(Cc2c(C)c3ccc(Oc4ncccc4F)cc3oc2=O)c1F", "target": "TEK", "assay": "cell-free assay, competition with immobilised ligand", "conditions": "10 µM", "endpoint": "remaining binding", "result": "100%"}
{"Compound": "CN1CCN(Cc2ccc(NC(=O)c3cccc(C#Cc4cnc(N)c5ncccc45)c3)cc2C(F)(F)F)CC1", "target": "TEK", "assay": "cell-free assay, competition with immobilised ligand", "conditions": "0.5 µM", "endpoint": "remaining binding", "result": "0.6%"}
